# Results of several laboratories.
# Compare with care: the assays were run in different laboratories. Numbers after ± are the reported error.
SMILES,cell line,test,setting,measurement,value
Oc1cc(O)c2c(c1)O[C@@]1(c3ccc(O)c(O)c3)Oc3cc(O)c4c(c3[C@@H]2[C@H]1O)O[C@H](c1ccc(O)c(O)c1)[C@H](O)C4,human cells,,,CC50,797 ± 63.7 µM
CN(C)CC1CCCCC1(O)c1cccc(O)c1 (centres unmarked),Caco-2 TC7,,"3 h, pH 7.4, range over concentrations",efflux ratio,0.9 to 1.1
N#Cc1cccc(-c2ccccc2C(N)=O)c1,human cells,,24 (unit not given),CC50,18.8 µM
OC[C@H]1O[C@@H](OCCc2ccccc2)[C@H](O)[C@@H](O)[C@@H]1O,human cells,,,CC50,> 100 µM
Nc1nc(SCCCN2CCCCC2)nc2sc3c(c12)CCC(c1ccccc1)C3 (centres unmarked),A549,,12.5 µM,viability,~20%
COC1=C[C@@H]2[C@@H]3Cc4ccc(OC)c(OC(=O)[C@@H]5CCCN5)c4[C@]2(CCN3C)CC1=O,RAW264.7,"cytotoxicity, MTT",24 h,IC50,> 100 µM
C[C@@H](CO)C(=O)OCCc1ccc(O)cc1,human cells,,,CC50,> 100 µM
CC(C)C[C@H](NC(=O)[C@H](CC(N)=O)NC(=O)[C@H](CCCCN)NC(=O)[C@H](CC(C)C)NC(=O)[C@H](Cc1ccccc1)NC(=O)CNC(=O)[C@H](CC(C)C)NC(=O)[C@@H](N)Cc1ccccc1)C(=O)N[C@@H](Cc1ccccc1)C(N)=O,Huh-7.5.1,"cell growth or viability, MTT","20 µg/mL, 48 h",viability,> 95%

# For quick reference, copied from above:
SMILES,cell line,test,setting,measurement,value
COC1=C[C@@H]2[C@@H]3Cc4ccc(OC)c(OC(=O)[C@@H]5CCCN5)c4[C@]2(CCN3C)CC1=O,RAW264.7,"cytotoxicity, MTT",24 h,IC50,> 100 µM
